Measurements collected from several papers.
Parts stem from different laboratories: compare values within a part only.

Study 1 — method: RNA Bind-n-Seq; molecule type: RNA; matrix: in vitro; tested at: 365 nM; reference: no-protein control; reading: higher = stronger binding
Target: RNA binding protein fox-1 homolog 2, RRM domain, GST-SBP tag (RBFOX2, Homo sapiens, UniProt O43251-10, residues 100-194)
Notes: natural RNA segment, single round, ends assumed
Residues (chain): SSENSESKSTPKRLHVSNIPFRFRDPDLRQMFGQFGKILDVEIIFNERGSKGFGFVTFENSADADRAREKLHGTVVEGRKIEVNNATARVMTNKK
| Sequence | RBNS enrichment (R) |
| --- | --- |
| GGGAGUUCUACAGUCCGACGAUCACCAGGUUGAUUUUAGUAACCCAAUUGCUUUGAUUUGACAUUAAUGUAGUCUUACAGGGCUGUGCUUGCUGGGCAUGCUUUUACGUCUGUGAGAUAAUUUCGGUUCAGUAUGGAAUUCUCGGGUGCCAA | 4.14 |
| GGGAGUUCUACAGUCCGACGAUCAGCAUUCUCUAUUUCUAAAGCCCACUUAUAACCCAGCAUACAAAUAGAUCUUAACAGUUUAUUAUUAACUUUUCAGGUCCUCAUUUAUUGAAAUUUAAAAAUAAAUGAAGUGGAAUUCUCGGGUGCCAA | 0.593 |
| GGGAGUUCUACAGUCCGACGAUCAAAGAUUUGUAUCCUGGCCUGUUUAUUCAGGUGGGAGAUGUUCUGUAUAAUUUUGAGGUAUAGCUUGAACUCCUAGAACAAGAGUUAAAAGUUCUUUUUAGCUCAUUCACUGGAAUUCUCGGGUGCCAA | 0.269 |
| GGGAGUUCUACAGUCCGACGAUCUCAAGGUCAGGGUCAGCCCCAGCUGUGGCAGAGAAGACUCAAGUCUGGUGCCUGGCCUCUGCACUGUCUGGAGCAUGAUCAGAAUCCACGGUGUAUCCUGGCUUUAGGGGUGGAAUUCUCGGGUGCCAA | 1.41 |

Study 2 — method: protein binding microarray; molecule type: double-stranded DNA, one strand shown; matrix: in vitro; tested at: not given; reference: not given; reading: higher = stronger binding
Target: Histone acetyltransferase KAT6A, winged helix 2, GST fusion (KAT6A, Homo sapiens, UniProt Q92794, residues 85-181)
Notes: 8-mer, flanks averaged, mean of 2 arrays, mostly near background
Target sequence (chain): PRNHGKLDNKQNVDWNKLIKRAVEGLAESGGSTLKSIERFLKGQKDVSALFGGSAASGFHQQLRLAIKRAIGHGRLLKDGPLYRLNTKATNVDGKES
| Sequence | E-score |
| --- | --- |
| CTTACAGA | -0.107 |
| CGCCAGAA | 0.174 |
| AACTAAGG | 0.017 |
| TCGACACA | 0.0138 |
| TCTATGCA | 0.0201 |
| AAAATAAG | 0.0247 |

Study 3 — method: protein-binding microarray; molecule type: double-stranded DNA, one strand shown; matrix: in vitro; tested at: 2200 nM top; notes: 60-bp whole probe; with: salmon DNA 0.4 mg/ml; reference: random background probes; reading: higher = stronger binding
Target: Interferon regulatory factor 7, full length, phosphomimetic (IRF7, Homo sapiens, UniProt Q92985, residues 1-503, S471D/S472D/S475D/S476D/S477D/S483D/S484D/S487D)
UniProt Q92985, sequence (whole entry, unmodified, looked up): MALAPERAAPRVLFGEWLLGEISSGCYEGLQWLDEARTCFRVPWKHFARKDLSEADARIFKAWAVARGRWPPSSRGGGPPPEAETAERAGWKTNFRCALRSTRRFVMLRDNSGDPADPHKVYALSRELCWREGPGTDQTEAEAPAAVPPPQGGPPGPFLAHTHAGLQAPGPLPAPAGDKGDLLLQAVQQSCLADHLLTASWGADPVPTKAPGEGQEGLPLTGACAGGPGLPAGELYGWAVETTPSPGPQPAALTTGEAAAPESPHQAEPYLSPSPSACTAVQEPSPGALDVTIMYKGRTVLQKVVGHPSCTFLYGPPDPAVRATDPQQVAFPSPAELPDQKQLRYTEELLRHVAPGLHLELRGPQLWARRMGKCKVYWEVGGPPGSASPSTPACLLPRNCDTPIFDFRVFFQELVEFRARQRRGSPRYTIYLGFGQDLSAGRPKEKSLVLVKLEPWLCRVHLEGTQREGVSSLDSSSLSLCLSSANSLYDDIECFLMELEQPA
| Sequence | fitted relative affinity [z-score] |
| --- | --- |
| GCCTAGCACGACGAACTGAGATTGGAGACGTGCTAGGTCTTGATTCGCTTGACGCTGCTG | -0.293 |
| GCCTAGCACGACGGACTGCTTCGCCTGACGTGCTAGGTCTTGATTCGCTTGACGCTGCTG | 0.00204 |
| GCCTAGCACTCATATTAAAATTTCATACTGTGCTAGGTCTTGATTCGCTTGACGCTGCTG | 0.432 |
| GCCTAGCACAGATGTATGAGCCTCTGTTTGTGCTAGGTCTTGATTCGCTTGACGCTGCTG | 0.721 |

Mixed results
| Substance | target | test | test system | setting | scale | endpoint | result |
| --- | --- | --- | --- | --- | --- | --- | --- |
| PhoQ, residues 284 288 289 292 302 303 SNSSNI | PhoP, residues 12 14 15 18 19 SQCLL (Escherichia coli, UniProt P23836) | Sort-seq, item: YFP reporter | E. coli | PhoQ-PhoP variant library, with: 10 µM Mg2+ | reference: high Mg2+ state, higher = stronger signaling | fold induction | 6.34 |

Some of these lines once more (study 1):
| Sequence | RBNS enrichment (R) |
| --- | --- |
| GGGAGUUCUACAGUCCGACGAUCAGCAUUCUCUAUUUCUAAAGCCCACUUAUAACCCAGCAUACAAAUAGAUCUUAACAGUUUAUUAUUAACUUUUCAGGUCCUCAUUUAUUGAAAUUUAAAAAUAAAUGAAGUGGAAUUCUCGGGUGCCAA | 0.593 |
